Assay results collected from several papers.
Numbered parts are unrelated; each lists some results of a single study. Substitutions count along the parent as printed.

Block 1
Target: Histone acetyltransferase KAT6A, both winged helices, GST fusion (KAT6A, Homo sapiens, UniProt Q92794, residues 1-181)
Technique: protein binding microarray
Form: double-stranded DNA, one strand shown
Medium: in vitro
Concentration: not given
Setting: 8-mer, flanks averaged, mean of 2 arrays, mostly near background
Relative to: not given
Direction: higher = stronger binding
Residues (chain): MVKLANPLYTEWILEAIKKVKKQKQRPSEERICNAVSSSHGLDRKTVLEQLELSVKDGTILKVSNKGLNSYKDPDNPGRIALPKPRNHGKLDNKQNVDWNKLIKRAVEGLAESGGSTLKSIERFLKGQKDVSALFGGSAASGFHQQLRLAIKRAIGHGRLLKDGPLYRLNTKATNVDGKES
| Oligonucleotide | E-score |
| --- | --- |
| ACGATAGG | -0.0898 |
| ATTTCTTA | -0.156 |
| CAGCACAG | -0.0982 |
| AGATCTGC | -0.198 |
| CATTAGAA | -0.0478 |
| CTGATGCA | -0.0202 |
| CGTACACG | 0.166 |
| GTACCGAC | 0.135 |
| CCCCTTTC | -0.0923 |
| ATACCCTA | -0.282 |
| CAATTTAA | -0.0775 |
| GAAGGTAC | -0.122 |
| ACTATCAT | 0.0704 |
| GATTACCA | -0.078 |
| GCTTGGGA | -0.115 |
| CTCATCAG | -0.0878 |
| ACAGATGT | -0.0753 |

Block 2
Target: Hepatocyte nuclear factor 3-beta, forkhead domain (FOXA2, Homo sapiens, UniProt Q9Y261, residues 142-269)
Technique: protein-binding microarray
Form: double-stranded DNA, one strand shown
Medium: in vitro
Concentration: not given
Setting: k-mer, scored over probes, only values ≥0.25
Direction: higher = stronger binding
Residues (chain): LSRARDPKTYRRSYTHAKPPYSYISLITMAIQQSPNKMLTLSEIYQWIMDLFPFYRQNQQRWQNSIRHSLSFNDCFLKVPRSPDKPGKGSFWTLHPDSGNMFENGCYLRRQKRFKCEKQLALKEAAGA
| Oligonucleotide | E-score |
| --- | --- |
| AGTATGTA | 0.263 |
| CATAGAAA | 0.278 |
| AAGACATA | 0.271 |
| AGATAAAT | 0.256 |
| GATATATC | 0.265 |
| AATGTATC | 0.31 |
| CATGTTTA | 0.329 |
| ATTTGTCA | 0.265 |
| CTGTAGTA | 0.332 |
| AATGTGTA | 0.308 |
| ATAATATA | 0.388 |
| TACTACGA | 0.255 |
| ATTTGTTC | 0.369 |
| CAATATCA | 0.284 |
| AGAGGTAT | 0.262 |
| AATGTCAC | 0.282 |
| ACAGTTAT | 0.272 |
| ATAAACGA | 0.344 |
| ATACATAC | 0.342 |
| AACATTGT | 0.347 |
| ATGTAGTA | 0.296 |
| ATATCAAA | 0.27 |
| ACTATCAT | 0.26 |
| GTATCACA | 0.299 |
| TACAGACA | 0.268 |

Block 3
Target: Interferon regulatory factor 5, full length, phosphomimetic (IRF5, Homo sapiens, UniProt Q13568-2, residues 1-514, K96S/S451D/S453D/S456D/S462D)
Technique: protein-binding microarray
Form: double-stranded DNA, one strand shown
Medium: in vitro
Concentration: 250 nM
Setting: 60-bp whole probe
Together with: salmon DNA 0.4 mg/ml
Relative to: random background probes
Direction: higher = stronger binding
All sequences stand within: GCCTAGCAC … GTCTTGATTCGCTTGACGCTGCTG
| Oligonucleotide | log fluorescence [z-score] |
| --- | --- |
| GACGGTCTCCTTTTCTTGACGTGCTAG | 0.0997 |
| TTAGGTAACGACACTGGGTTAGTGCTA | -0.0634 |
| TGCATTTTTTTTTTCTACTTGTGCTAG | 1.28 |
| TTGGGTATCGGGTTTCGGTTAGTGCTA | 8.24 |
| GACGATCTCCGACTGGAGACGTGCTAG | -0.522 |
| TTAGGTATCGGACTGGGTTCGTGCTAG | 1.42 |
| TTAGATTTCGGGATTGGATTAGTGCTA | 3.48 |
| TTCTGATTGAATCTCCCATTGTGCTAG | 0.646 |
| TCAACACTAGTTTTTACACTGTGCTAG | 0.593 |
| GATGAACTGGGGTTTCGAGACGTGCTA | 1.14 |
| GAGGGTATCCTTCTCCTGACGTGCTAG | -0.308 |
| TCATCATTTTTTTTCATACTGTGCTAG | 1.52 |
| GACGGTATCCTACCGCTGACGTGCTAG | -0.277 |
| TTAGATTTCAGACTGGATTGGTGCTAG | 0.388 |
| TTACGTTTCGGTTCCGGTTAGTGCTAG | 9.98 |
| TCATCTCCGGGGTCTGTGACTGTGCTA | -0.142 |
| GACGATTTCGGGTATGGAGACGTGCTA | 3.93 |
| CACGGACTGGGACTGGGGACGTGCTAG | -0.558 |
| TTGGGACTGGGGTTTCGGTTAGTGCTA | 5.74 |
| GACGGACTGGGACTGGAGACGTGCTAG | -0.788 |
| TCAGCTCTAGGTTCTCTGACTGTGCTA | -0.522 |

Block 4
Target: CCNB1, cyclin fold, Cln2 fusion (human)
Technique: yeast growth competition, sequencing
Medium: yeast
Setting: weak parent motif
Relative to: not given
Direction: higher = stronger binding
Parent: WEE1 docking peptide (human); HKTFRKLRLFDTP
| Substitution | normalised enrichment score |
| --- | --- |
| HKTFKKLRFFDTP [R5K L9F] | 0.151 |
| HQTFRKLRLFDTP [K2Q] | 0.254 |
| HKTFRKLILFDTP [R8I] | 0.706 |
| PKTFRKLRLFDTP [H1P] | 0.737 |
| HKTFRKLELFDTP [R8E] | 0.628 |
| HKTFRKLRLNDTP [F10N] | 0.328 |
| HKTFRKLRLFSTP [D11S] | 0.851 |
| HKTVRKLRLFDTP [F4V] | 0.681 |
| HKTFRTLRLFDTP [K6T] | 0.431 |
| HKTFRKLRLCDTP [F10C] | 0.423 |
| HKTFRKLRLFDTT [P13T] | 0.945 |
| HKFFRKLRLFDTP [T3F] | 0.106 |
| HKIFRKLRLFDTP [T3I] | 0.0701 |
| HKTFRKLREFDTP [L9E] | 0.568 |
| HMTFRKLRLFDTP [K2M] | 0.663 |
| HKTARKLRLFDTP [F4A] | 0.502 |
| HKTFRKLRLFDPP [T12P] | 0.435 |
| HKTFRKLRLFCTP [D11C] | 1.11 |
| HKTFRKLRLFDTY [P13Y] | 0.454 |
| HKTFRILRLFDTP [K6I] | 1.02 |
| HKTFRKLRHFDTP [L9H] | 0.0764 |
| HKTFRKLRLADTP [F10A] | 1 |
| HKTFRKLRLFDIP [T12I] | 1.4 |
| HKTFRCLRLFDTP [K6C] | 0.403 |
| HKTFIKLRLFDTP [R5I] | -0.273 |

Block 5
Target: NFIL3, bZIP domain (human)
Technique: DHFR protein complementation
Medium: yeast
Setting: single substitutions, most at no-binding floor
Relative to: wild-type JUN-FOS pair
Direction: higher = stronger binding
Parent: JUN, bZIP domain (human); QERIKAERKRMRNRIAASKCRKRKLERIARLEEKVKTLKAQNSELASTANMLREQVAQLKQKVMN; partner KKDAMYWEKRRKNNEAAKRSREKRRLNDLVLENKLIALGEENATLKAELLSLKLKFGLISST
| Substitution | binding fitness |
| --- | --- |
| A57G | -1.5 natural log |
| K36V | -1.47 natural log |
| Q55P | -1.35 natural log |
| L45M | -1.5 natural log |
| T48I | -1.28 natural log |
| A46H | -1.52 natural log |
| I28T | -1.34 natural log |
| Q41P | -1.49 natural log |
| E32W | -1.58 natural log |
| L45H | -1.48 natural log |
| Q55I | -1.22 natural log |
| V35A | -1.34 natural log |
| K34M | -1.44 natural log |
| A40Y | -1.4 natural log |
| N42H | -1.43 natural log |
| S47Y | -1.5 natural log |
| E44K | -1.46 natural log |
| R53P | -1.55 natural log |
| K39S | -1.33 natural log |
| L31C | -1.51 natural log |
| A29C | -1.42 natural log |
| I28P | -1.43 natural log |
| K39Y | -1.45 natural log |
| Q41H | -1.59 natural log |
| L52N | -1.5 natural log |

Block 6
Target: Ras GTPase-activating protein-binding protein 1, full length (G3BP1, Homo sapiens, UniProt Q13283)
Chain of UniProt Q13283 (whole entry, looked up): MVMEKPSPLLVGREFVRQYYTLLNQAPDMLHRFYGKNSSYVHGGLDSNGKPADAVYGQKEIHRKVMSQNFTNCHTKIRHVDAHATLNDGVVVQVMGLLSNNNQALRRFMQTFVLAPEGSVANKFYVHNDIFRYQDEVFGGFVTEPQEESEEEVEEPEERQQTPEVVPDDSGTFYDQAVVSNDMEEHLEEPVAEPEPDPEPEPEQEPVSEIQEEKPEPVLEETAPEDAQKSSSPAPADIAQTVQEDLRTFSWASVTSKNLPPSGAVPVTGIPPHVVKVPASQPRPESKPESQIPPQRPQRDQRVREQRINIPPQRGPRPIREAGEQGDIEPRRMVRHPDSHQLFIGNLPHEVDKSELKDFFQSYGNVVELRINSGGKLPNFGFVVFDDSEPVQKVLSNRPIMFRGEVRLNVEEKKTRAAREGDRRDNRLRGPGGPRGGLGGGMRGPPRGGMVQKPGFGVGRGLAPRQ
Technique: RNA Bind-n-Seq
Form: RNA
Medium: in vitro
Concentration: 200 nM
Setting: whole 134-nt RNA, ends assumed
Together with: 150 mM LiCl
Relative to: input library
Direction: higher = stronger binding
All molecules: 7-deaza-guanosine replaces G
All sequences stand within: GGGAGUUCUACAGUCCGACGAUC … UGGAAUUCUCGGGUGUCAAGG
| Oligonucleotide | log2 enrichment |
| --- | --- |
| GUCCUGUGCUACACAUCGUAUGUACCGAAUCGGGGCCCCCGGCCCCCGGGGCCCCCGGAAAGUAUUAUGUUACGCCGUUCGGAUCUGCAC | -2.16 |
| GCAGGAAGUAAAAACAAAUGGAAAUGCUUCGGAUAGUGGCAGGGGUGGGGGUUGCUAAGGAAAGGGUGGGAUGGAAAUGGGUAAAGAGUU | 0.224 |
| UGUCCUGUGCUUUCACAUUCUUUCUGCAUGGAGAAAGUAAUGUAUGCACAAGUGUGGAGAUUGCCCAGCACCAGCCAAUUUAUUUGAUCA | -2.8 |
| UUGCAGCAACUGCUACCAGCCUCCCAGUCCACACAGCUGCCAUGCUCAAGUUCCCCUCAGGAGACCACCCAGUCUCGCCCUAUGCCGCCG | 0.0403 |
| UGGCCCUGGUGGCAUGCGGCGAGGAAGAGGUGGCCUCAUGGAUCGUGGUGGUCCCGGUGGAAUGUUCAGAGGUGGCCGUGGUGGAGACAG | 0.151 |
| AGUCCUGUGCUACACAUCGUAUGUACCGAAUCAAACCCCCAAACCCAAAUUUUUAAAAAAGUAUUAUGUUACGCCGUUCGGAUCUGCACU | 1.22 |
| AAGUCCUGUGCUACACAUCGUAUGUACCGAAUCGGAAAAAAAGGUGGUUUUUUUGGAAAGUAUUAUGUUACGCCGUUCGGAUCUGCACUU | -1.64 |
| UGUUGGAGGGACGAUGGUCCGCUCCGGGCAGGACCCUUACGCCCGCAACAAGUUCAACCAGGUGGAGAGUGAUAAGCUUCGAAUGGACAG | -2.74 |
| UCCUGUGCUACACAUCGUAUGUACCGAAUCGGGGAAAAAGGAAAAAGGGGAAAAAGGGGAAAGUAUUAUGUUACGCCGUUCGGAUCUGCA | -0.287 |
| UUAGUGAAUGUAUAGAAGGAGUAAAGGUAGAGCACAAUCCUGACCUGUCAGUUACUGUCAGCACCAAAAAAUCCCACCAGACAUGGACCU | 1.06 |
| CACAGACAACACGCACCCACACAGACCCAGAGGGAAGGGGUUGGGAUGGGGACAGGGUGCACAGCAGGGCGGGGUAGGACCCCAGCCCCU | -0.58 |

A few entries again (block 6):
| Oligonucleotide | log2 enrichment |
| --- | --- |
| UUGCAGCAACUGCUACCAGCCUCCCAGUCCACACAGCUGCCAUGCUCAAGUUCCCCUCAGGAGACCACCCAGUCUCGCCCUAUGCCGCCG | 0.0403 |
| GUCCUGUGCUACACAUCGUAUGUACCGAAUCGGGGCCCCCGGCCCCCGGGGCCCCCGGAAAGUAUUAUGUUACGCCGUUCGGAUCUGCAC | -2.16 |
| UGUUGGAGGGACGAUGGUCCGCUCCGGGCAGGACCCUUACGCCCGCAACAAGUUCAACCAGGUGGAGAGUGAUAAGCUUCGAAUGGACAG | -2.74 |
| AAGUCCUGUGCUACACAUCGUAUGUACCGAAUCGGAAAAAAAGGUGGUUUUUUUGGAAAGUAUUAUGUUACGCCGUUCGGAUCUGCACUU | -1.64 |
| UGUCCUGUGCUUUCACAUUCUUUCUGCAUGGAGAAAGUAAUGUAUGCACAAGUGUGGAGAUUGCCCAGCACCAGCCAAUUUAUUUGAUCA | -2.8 |
| UUAGUGAAUGUAUAGAAGGAGUAAAGGUAGAGCACAAUCCUGACCUGUCAGUUACUGUCAGCACCAAAAAAUCCCACCAGACAUGGACCU | 1.06 |
| UCCUGUGCUACACAUCGUAUGUACCGAAUCGGGGAAAAAGGAAAAAGGGGAAAAAGGGGAAAGUAUUAUGUUACGCCGUUCGGAUCUGCA | -0.287 |
| AGUCCUGUGCUACACAUCGUAUGUACCGAAUCAAACCCCCAAACCCAAAUUUUUAAAAAAGUAUUAUGUUACGCCGUUCGGAUCUGCACU | 1.22 |
| UGGCCCUGGUGGCAUGCGGCGAGGAAGAGGUGGCCUCAUGGAUCGUGGUGGUCCCGGUGGAAUGUUCAGAGGUGGCCGUGGUGGAGACAG | 0.151 |
| CACAGACAACACGCACCCACACAGACCCAGAGGGAAGGGGUUGGGAUGGGGACAGGGUGCACAGCAGGGCGGGGUAGGACCCCAGCCCCU | -0.58 |
| GCAGGAAGUAAAAACAAAUGGAAAUGCUUCGGAUAGUGGCAGGGGUGGGGGUUGCUAAGGAAAGGGUGGGAUGGAAAUGGGUAAAGAGUU | 0.224 |
